Measured values of several laboratories.
A part holds a random share of what one study measured. “And” joins repeats or separate records; there may be more than shown.
Sequence of UniProt P57059 (whole entry, looked up): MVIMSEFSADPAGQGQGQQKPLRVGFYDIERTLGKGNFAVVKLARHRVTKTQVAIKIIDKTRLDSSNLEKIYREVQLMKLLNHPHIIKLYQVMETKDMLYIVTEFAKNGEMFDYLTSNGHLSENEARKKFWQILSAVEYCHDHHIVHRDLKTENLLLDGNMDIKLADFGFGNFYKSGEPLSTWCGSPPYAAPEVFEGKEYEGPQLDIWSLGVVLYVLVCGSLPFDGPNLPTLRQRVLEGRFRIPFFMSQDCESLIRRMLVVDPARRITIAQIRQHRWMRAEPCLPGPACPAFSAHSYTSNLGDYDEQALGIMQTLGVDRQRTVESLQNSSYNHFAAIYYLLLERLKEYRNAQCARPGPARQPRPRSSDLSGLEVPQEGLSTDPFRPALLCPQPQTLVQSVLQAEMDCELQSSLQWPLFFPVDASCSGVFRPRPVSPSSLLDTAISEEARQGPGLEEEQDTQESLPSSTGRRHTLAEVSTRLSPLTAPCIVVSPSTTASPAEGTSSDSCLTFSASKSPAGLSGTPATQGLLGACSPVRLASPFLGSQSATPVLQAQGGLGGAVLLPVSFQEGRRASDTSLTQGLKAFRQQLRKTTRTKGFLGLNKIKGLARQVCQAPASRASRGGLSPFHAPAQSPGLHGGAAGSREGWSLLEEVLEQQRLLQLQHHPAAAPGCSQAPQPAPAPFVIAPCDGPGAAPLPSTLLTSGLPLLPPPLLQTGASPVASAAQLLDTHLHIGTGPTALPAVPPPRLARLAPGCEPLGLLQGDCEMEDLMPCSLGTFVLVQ
Sequence of UniProt P19525 (whole entry, looked up): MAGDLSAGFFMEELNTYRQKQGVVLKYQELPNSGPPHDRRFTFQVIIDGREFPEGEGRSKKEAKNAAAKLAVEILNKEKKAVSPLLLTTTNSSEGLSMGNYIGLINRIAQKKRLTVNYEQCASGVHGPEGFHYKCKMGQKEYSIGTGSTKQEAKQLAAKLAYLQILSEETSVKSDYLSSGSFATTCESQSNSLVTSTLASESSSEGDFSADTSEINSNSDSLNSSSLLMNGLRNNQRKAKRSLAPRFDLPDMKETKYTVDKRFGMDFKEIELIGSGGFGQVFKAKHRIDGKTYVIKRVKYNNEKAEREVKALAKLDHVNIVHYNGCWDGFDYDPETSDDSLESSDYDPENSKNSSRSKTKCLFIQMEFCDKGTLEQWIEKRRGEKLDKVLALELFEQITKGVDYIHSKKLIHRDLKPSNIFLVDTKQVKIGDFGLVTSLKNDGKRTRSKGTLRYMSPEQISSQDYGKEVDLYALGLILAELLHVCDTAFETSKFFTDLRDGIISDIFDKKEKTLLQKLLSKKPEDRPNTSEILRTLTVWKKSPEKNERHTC
Sequence of UniProt O75582 (whole entry, looked up): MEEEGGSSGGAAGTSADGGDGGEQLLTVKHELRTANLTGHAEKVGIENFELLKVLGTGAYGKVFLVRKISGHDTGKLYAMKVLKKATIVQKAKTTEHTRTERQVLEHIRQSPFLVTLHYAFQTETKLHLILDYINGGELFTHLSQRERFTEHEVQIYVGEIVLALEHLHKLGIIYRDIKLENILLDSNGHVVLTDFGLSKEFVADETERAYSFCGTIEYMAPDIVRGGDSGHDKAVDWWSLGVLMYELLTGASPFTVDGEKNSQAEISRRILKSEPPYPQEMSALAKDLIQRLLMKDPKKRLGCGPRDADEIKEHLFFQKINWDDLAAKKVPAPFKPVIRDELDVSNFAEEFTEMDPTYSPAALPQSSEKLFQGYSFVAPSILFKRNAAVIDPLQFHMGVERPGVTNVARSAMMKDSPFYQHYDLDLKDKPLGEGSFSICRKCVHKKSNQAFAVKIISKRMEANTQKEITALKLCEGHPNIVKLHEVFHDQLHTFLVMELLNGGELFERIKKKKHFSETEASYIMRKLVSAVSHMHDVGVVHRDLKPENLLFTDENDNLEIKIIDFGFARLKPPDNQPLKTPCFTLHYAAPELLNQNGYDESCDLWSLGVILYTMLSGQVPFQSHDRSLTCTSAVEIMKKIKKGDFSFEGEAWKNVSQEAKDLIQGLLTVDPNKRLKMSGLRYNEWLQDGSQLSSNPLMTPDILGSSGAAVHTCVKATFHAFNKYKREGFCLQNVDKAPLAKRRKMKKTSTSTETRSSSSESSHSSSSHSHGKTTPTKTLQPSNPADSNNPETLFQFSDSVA
Sequence of UniProt Q9BWU1 (whole entry, looked up): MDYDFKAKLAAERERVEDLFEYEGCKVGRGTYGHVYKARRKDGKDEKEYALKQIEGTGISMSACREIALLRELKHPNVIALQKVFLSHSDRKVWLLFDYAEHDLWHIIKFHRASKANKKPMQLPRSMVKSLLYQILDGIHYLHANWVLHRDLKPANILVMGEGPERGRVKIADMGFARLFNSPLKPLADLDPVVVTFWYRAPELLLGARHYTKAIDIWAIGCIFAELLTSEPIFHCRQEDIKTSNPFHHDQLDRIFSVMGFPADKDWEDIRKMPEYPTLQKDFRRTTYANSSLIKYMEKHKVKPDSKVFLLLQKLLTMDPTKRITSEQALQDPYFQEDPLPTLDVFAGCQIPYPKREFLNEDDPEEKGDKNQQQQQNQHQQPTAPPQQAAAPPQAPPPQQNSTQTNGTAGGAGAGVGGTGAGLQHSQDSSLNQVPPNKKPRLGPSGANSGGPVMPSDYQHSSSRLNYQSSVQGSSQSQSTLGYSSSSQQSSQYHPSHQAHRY
Sequence of UniProt Q8IVW4 (whole entry, looked up): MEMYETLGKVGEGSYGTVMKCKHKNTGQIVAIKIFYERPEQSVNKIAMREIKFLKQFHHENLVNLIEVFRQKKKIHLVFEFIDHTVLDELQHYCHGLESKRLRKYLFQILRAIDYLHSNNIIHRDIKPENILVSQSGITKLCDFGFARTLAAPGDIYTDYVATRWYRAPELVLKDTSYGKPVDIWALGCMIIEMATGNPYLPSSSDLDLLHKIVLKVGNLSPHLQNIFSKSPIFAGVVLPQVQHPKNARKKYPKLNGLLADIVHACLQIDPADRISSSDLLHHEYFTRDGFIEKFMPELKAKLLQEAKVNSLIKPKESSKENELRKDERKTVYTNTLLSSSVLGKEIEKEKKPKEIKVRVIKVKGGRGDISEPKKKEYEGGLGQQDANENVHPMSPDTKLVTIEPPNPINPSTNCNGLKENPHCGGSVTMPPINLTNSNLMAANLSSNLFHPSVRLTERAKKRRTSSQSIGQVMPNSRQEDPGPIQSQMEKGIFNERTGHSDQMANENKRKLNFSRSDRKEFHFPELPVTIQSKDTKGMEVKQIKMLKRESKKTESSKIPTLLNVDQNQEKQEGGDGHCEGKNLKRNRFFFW
Sequence of UniProt P28482 (whole entry, looked up): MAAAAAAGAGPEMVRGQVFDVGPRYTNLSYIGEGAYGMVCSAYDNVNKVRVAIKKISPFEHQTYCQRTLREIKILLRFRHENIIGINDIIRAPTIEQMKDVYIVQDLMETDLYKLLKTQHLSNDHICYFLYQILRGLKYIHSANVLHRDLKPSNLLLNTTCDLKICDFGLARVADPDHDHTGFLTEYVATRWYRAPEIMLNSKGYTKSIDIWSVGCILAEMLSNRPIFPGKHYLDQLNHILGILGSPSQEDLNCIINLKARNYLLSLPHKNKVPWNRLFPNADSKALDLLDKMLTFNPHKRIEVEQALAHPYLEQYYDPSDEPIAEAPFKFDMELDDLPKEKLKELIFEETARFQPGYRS

Series 1
Target: Mitogen-activated protein kinase kinase kinase 9 (MAP3K9, Homo sapiens, UniProt P80192)
Sequence of UniProt P80192 (whole entry, looked up): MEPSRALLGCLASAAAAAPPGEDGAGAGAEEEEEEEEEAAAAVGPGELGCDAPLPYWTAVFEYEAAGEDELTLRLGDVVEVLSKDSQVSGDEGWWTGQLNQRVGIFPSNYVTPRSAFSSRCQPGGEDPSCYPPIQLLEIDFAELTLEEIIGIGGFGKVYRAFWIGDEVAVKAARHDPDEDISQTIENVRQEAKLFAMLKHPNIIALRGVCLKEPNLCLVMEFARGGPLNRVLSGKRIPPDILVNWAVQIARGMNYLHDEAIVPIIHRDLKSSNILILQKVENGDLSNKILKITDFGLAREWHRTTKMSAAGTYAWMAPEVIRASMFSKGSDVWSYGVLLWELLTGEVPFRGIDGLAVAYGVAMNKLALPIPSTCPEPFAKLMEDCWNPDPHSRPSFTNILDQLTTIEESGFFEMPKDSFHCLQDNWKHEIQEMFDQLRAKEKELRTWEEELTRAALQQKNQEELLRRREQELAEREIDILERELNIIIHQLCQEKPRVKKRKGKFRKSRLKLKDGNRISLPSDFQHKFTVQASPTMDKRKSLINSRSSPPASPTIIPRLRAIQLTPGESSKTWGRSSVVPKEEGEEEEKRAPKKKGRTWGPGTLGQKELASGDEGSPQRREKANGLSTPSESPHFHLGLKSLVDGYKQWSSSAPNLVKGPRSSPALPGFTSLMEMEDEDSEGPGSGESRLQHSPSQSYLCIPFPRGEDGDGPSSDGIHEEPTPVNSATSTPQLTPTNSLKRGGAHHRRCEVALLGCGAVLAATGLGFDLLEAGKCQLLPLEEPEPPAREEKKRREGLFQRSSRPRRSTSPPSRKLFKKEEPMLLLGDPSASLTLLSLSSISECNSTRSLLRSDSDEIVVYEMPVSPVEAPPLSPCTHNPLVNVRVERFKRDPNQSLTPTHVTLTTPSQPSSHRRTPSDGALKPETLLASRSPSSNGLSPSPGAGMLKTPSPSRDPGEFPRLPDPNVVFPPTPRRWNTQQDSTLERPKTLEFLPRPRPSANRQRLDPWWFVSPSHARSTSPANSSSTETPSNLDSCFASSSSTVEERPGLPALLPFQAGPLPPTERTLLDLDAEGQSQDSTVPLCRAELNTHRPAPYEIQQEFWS
Observed: enzyme activity
Mode: inhibitor
Concentration: 0.5 µM
Reference: control
Endpoint: remaining activity
O=C1NC(=O)C(c2cn(CCCO)c3ncccc23)=C1c1cnccn1: 85.5%
NCCNc1ncc(C(N)=O)c(Nc2cccc(C(F)(F)F)c2)n1: 44.7%
CN(C)c1ccc(C=C2C(=O)Nc3ccccc32)cc1: 90.2%
COc1cc2nccc(Oc3ccc(NC(=S)NC(=O)c4ccccc4C)cc3)c2cc1OC: 99.3%
O=C(Nc1cccc(Nc2cc(Nc3cccc(C(F)(F)F)c3)ncn2)c1)C1CC1: 107%
O=C(CCCc1ccc(-c2ccccc2F)cc1)Nc1ccc(O)cc1: 100%
CC(C)[C@H](CO)Nc1nc(Nc2cc(N)cc(Cl)c2)c2ncn(C(C)C)c2n1: 7.81%
CNC(=O)c1cc(Oc2ccc(NC(=O)Nc3ccc(Cl)c(C(F)(F)F)c3)cc2)ccn1: 103%
COc1ccc(OC)c2c(=S)c3ccccc3[nH]c12: 102%
Cc1ccc(Nc2nccc(N(C)c3ccc4c(C)n(C)nc4c3)n2)cc1S(N)(=O)=O: 10.6%
Cc1ccc(NC(=O)c2ccc(CN3CCN(C)CC3)cc2)cc1Nc1nc(-c2cccnc2)cs1: 104%
Nc1[nH]nc2nc3ccccc3nc12: 97.7%
COc1cc2ncnc(Nc3ccc(F)c(Cl)c3)c2cc1OCCCN1CCOCC1: 110%
Cc1cccc(-c2[nH]c(C(C)(C)C)nc2-c2ccc3c(c2)OCO3)n1: 94%
Nc1ccc2ncnc(NCCc3ccc(Oc4ccccc4)cc3)c2c1: 103%
O=C(O)c1ccc2c3c1cccc3c(=O)n1c3ccccc3nc21: 64.4%

Series 2
Structure (SMILES): CC(=O)N1CCN(c2nc(OC[C@@H]3CCCN3C)nc3c2CCN(c2cccc4cccc(Cl)c24)C3)C[C@@H]1CC#N
Observed: binding
Mode: competitor
Method: NanoBRET
Cell line: HEK293
Endpoint: normalized BRET
KRAS G12D: GTPase KRas (KRAS, Homo sapiens, UniProt P01116, G12D)
GTPase KRas (KRAS, Homo sapiens, UniProt P01116, Q61L); 11.1 µM: 20.9% and 26% and 27.6%
KRAS G12D; 15.2 nM: 91.3% and 98.3% and 99.3%
KRAS G12D; 1.24 µM: 97.4% and 87.4% and 93.2%
GTPase KRas (KRAS, Homo sapiens, UniProt P01116, G13D); 1.24 µM: 49.8% and 47.6% and 46.8%
KRAS G12D; 11.1 µM: 82.8% and 87.5% and 85.3%
GTPase KRas (KRAS, Homo sapiens, UniProt P01116, Q61H); 33.3 µM: 14.1% and 10.2% and 9.1%
GTPase KRas (KRAS, Homo sapiens, UniProt P01116, Q61R); 3.7 µM: 105% and 83.4% and 94.3%
KRAS G12D; 45.7 nM: 93.9% and 93.7% and 95.8%

Series 3
SMILES: CCS(=O)(=O)c1cc2cc(C[C@@](O)(CC(C)(C)c3ccc(F)cc3C(N)=O)C(F)(F)F)[nH]c2cn1
Concentration: 1 µM
Endpoint: remaining binding
COQ8A (Homo sapiens, UniProt Q8NI60); cell-free assay, competition with immobilised ligand: 95%
Ribosomal protein S6 kinase alpha-5, C-terminal kinase domain (RPS6KA5, Homo sapiens, UniProt O75582); cell-free assay, competition with immobilised ligand: 69%
SIK1 (Homo sapiens, UniProt P57059); competition binding: 100%
CDKL3 (Homo sapiens, UniProt Q8IVW4); cell-free assay, competition with immobilised ligand: 90%
BRSK1 (Homo sapiens, UniProt Q8TDC3); cell-free assay, competition with immobilised ligand: 73%
Aurora kinase A (AURKA, Homo sapiens, UniProt O14965); cell-free assay, competition with immobilised ligand: 88%
RET (Homo sapiens, UniProt P07949, M918T); cell-free assay, competition with immobilised ligand: 98%
EIF2AK2 (Homo sapiens, UniProt P19525); cell-free assay, competition with immobilised ligand: 61%
MAPK1 (Homo sapiens, UniProt P28482); cell-free assay, competition with immobilised ligand: 94%
MATK (Homo sapiens, UniProt P42679); cell-free assay, competition with immobilised ligand: 100%
CDK19 (Homo sapiens, UniProt Q9BWU1); competition binding: 100%
STK35 (Homo sapiens, UniProt Q8TDR2); cell-free assay, competition with immobilised ligand: 100%

Series 4
SMILES: O=C1CCC(N2Cc3cc(C4CCN(Cc5ccccc5)CC4)ccc3C2=O)C(=O)N1 (stereo not shown)
Sample: plasma
Endpoint: plasma concentration
male ICR mice; oral, 3 mg/kg, 4 h: 38.3 ng/mL
male ICR mice; intravenous, 1 mg/kg, 24 h: not detected
ICR mouse, male; intravenous, 1 mg/kg, 4 h: 20.7 ng/mL and 25.2 ng/mL
ICR mouse, male; oral, 3 mg/kg, 8 h: 4.06 ng/mL and 7.47 ng/mL and 3.59 ng/mL
Sprague Dawley rat, male; oral, 3 mg/kg, 6 h: 17.4 ng/mL and 16.3 ng/mL
male ICR mice; intravenous, 1 mg/kg, 0.5 h: 89 ng/mL
male ICR mice; oral, 3 mg/kg, 0.5 h: 268 ng/mL
male ICR mice; intravenous, 1 mg/kg, 0.083 h: 184 ng/mL
Sprague Dawley rat, male; oral, 3 mg/kg, 0.083 h: 3.36 ng/mL and 6.26 ng/mL and 1.95 ng/mL
ICR mouse, male; intravenous, 1 mg/kg, 0.083 h: 191 ng/mL and 237 ng/mL
ICR mouse, male; oral, 3 mg/kg, 0.25 h: 222 ng/mL and 266 ng/mL
male Sprague Dawley rats; oral, 3 mg/kg, 2 h: 63.5 ng/mL
male ICR mice; oral, 3 mg/kg, 1 h: 224 ng/mL

Excerpt of the above (series 3):
Aurora kinase A (AURKA, Homo sapiens, UniProt O14965); cell-free assay, competition with immobilised ligand: 88%
RET (Homo sapiens, UniProt P07949, M918T); cell-free assay, competition with immobilised ligand: 98%
EIF2AK2 (Homo sapiens, UniProt P19525); cell-free assay, competition with immobilised ligand: 61%
MAPK1 (Homo sapiens, UniProt P28482); cell-free assay, competition with immobilised ligand: 94%
MATK (Homo sapiens, UniProt P42679); cell-free assay, competition with immobilised ligand: 100%
CDK19 (Homo sapiens, UniProt Q9BWU1); competition binding: 100%
STK35 (Homo sapiens, UniProt Q8TDR2); cell-free assay, competition with immobilised ligand: 100%
